# Results of several laboratories.
# Each line is one published result; not all experiments were run side by side. “And” joins repeats or separate records; there may be more than shown. ± marks the error that the study gave.
# USP13 ZnF-UBD domain: Ubiquitin carboxyl-terminal hydrolase 13, ZnF-UBD domain (USP13, Homo sapiens, UniProt Q92995)
# Methyl-accepting chemotaxis protein McpA ligand-binding domain: Methyl-accepting chemotaxis protein McpA, ligand-binding domain (Bacillus velezensis, UniProt A7Z835)
# SCRIB PDZ3 domain: Protein scribble homolog, PDZ3 domain (SCRIB, Homo sapiens, UniProt Q14160)
# cadA: cadA (Escherichia coli, UniProt P0A9H3)
# LYZ: Lysozyme C (LYZ, Gallus gallus, UniProt P00698)
# HDAC6 ZnF-UBD domain: Protein deacetylase HDAC6, ZnF-UBD domain (HDAC6, Homo sapiens, UniProt Q9UBN7)
SMILES,tested on,test,system,setting,scale,endpoint,value
NC(=O)c1cc(-n2c(CCC(=O)O)nc3ccccc32)cs1,USP13 ZnF-UBD domain,,,,,Kd,754 µM
[N-]=[N+]=NCC1OC(OC2C(N)CC(N)C(OC3OC(CN)C(O)C(O)C3O)C2O)C(O)C(N)C1O (stereo not drawn),"SCA3 RNA, 5′CAG/3′GAC repeats","RNA binding, fluorescence titration",,"1 h, room temperature, 12 repeat copies",,Kd,> 5 µM
O=C(O)C(=O)O,Methyl-accepting chemotaxis protein McpA ligand-binding domain,"binding, biolayer interferometry",,"25 °C, 1:1 binding model",,Kd,2.89 ± 0.21 µM
C[N+](C)(C)Cc1cccc(N=Nc2cccc(C[N+](C)(C)C)c2)c1,"muscarinic receptor, Rana temporaria","antagonist, radioligand displacement",ventricle homogenate,"24 °C, in the dark, together with: [3H]N-methylscopolamine",,Kd,4.3 µM
O=C(O)[C@@H](O)CO,Methyl-accepting chemotaxis protein McpA ligand-binding domain,"binding, biolayer interferometry",,"25 °C, 1:1 binding model",,Kd,11.5 ± 1.2 µM
O=C1CCC(=O)N(O)CCCCCNC(=O)CCC(=O)N(O)CCCCCNC(=O)CCC(=O)N(O)CCCCCN1,"Iron(3+)-hydroxamate-binding protein YxeB (yxeB, Bacillus subtilis, UniProt P54941)","binding, Trp fluorescence quenching",,"pH 7.4, together with: yxeB 100 nM",,Kd,0.105 ± 0.022 µM
Nc1ncnc2c1ncn2[C@@H]1O[C@H](CO[P@](=O)(O)O[P@](=O)(O)O[P@@](=O)(O)S)[C@@H](O)[C@H]1O,"GUK1 (Homo sapiens, UniProt Q16774, R148A)","binding, ITC",,"25 °C, together with: GMP",,Kd,130 ± 10 µM
CC(C)C[C@H](NC(=O)[C@H](Cc1ccccc1)NC(=O)[C@H](CO)NC(=O)[C@H](CC(=O)O)NC(=O)[C@H](CCC(=O)O)NC(=O)[C@@H](NC(=O)[C@H](CC(C)C)NC(=O)[C@H](CC(=O)O)NC(=O)[C@H](CO)NC(=O)[C@@H](N)CO)C(C)C)C(=O)O,SCRIB PDZ3 domain,"binding, fluorescence polarization",solution,Scribble PDZ3 domain,,Kd,52 µM
Nc1nc2c(ncn2[C@@H]2O[C@H](COP(=O)(O)OP(=O)(O)O)[C@@H](OP(=O)(O)OP(=O)(O)O)[C@H]2O)c(=O)[nH]1,cadA,isothermal titration calorimetry,,,,Kd,2.6 µM
Nc1ncnc2c1ncn2[C@@H]1O[C@H](COP(=O)(O)OP(=O)(O)OP(=O)(O)O)[C@@H](O)[C@H]1O,"CKMT1A (Homo sapiens, UniProt P12532)",microscale thermophoresis,,"pH 7.0, wild type, no substrate",,Kd,32 ± 19 µM
CC(C)C[C@H](NC(=O)[C@H](Cc1ccc(O)cc1)NC(=O)[C@H](CO)NC(=O)CNC(=O)[C@H](CO)NC(=O)[C@@H](N)Cc1c[nH]cn1)C(=O)N[C@H](C(=O)N[C@H](C(=O)N[C@@H](CO)C(=O)N[C@H](C(=O)O)C(C)C)[C@@H](C)O)C(C)C,SCRIB PDZ3 domain,"binding, fluorescence polarization",solution,Scribble PDZ3 domain,,Kd,6.7 µM
O=C(O)CCc1ccno1,USP13 ZnF-UBD domain,,,,,Kd,> 1000 µM
C=CC(=O)N1CCN(c2nc(OC[C@@H]3CCCN3C)nc3c(F)c(-c4nc(N)cc(C)c4C(F)(F)F)c(Cl)cc23)[C@@H](C)C1,"GTPase KRas, GDP-bound (KRAS, Homo sapiens, UniProt P01116)",microscale thermophoresis,,,,Kd,0.197 ± 0.13 µM
O=C(O)CCn1c(=O)oc2ccccc21,USP13 ZnF-UBD domain,,,,,Kd,> 1000 µM
CC1=C(/C=C/C(C)=C/C=C/C(C)=C/C=C/C=C(C)/C=C/C=C(C)/C=C/C2=C(C)CCCC2(C)C)C(C)(C)CCC1,"Beta-lactoglobulin (LGB, Bos taurus, UniProt P02754)","binding, fluorescence quenching",PBS,"30 min, 308 K",,Kd,1.34 µM
O=C(O)Cn1cc2ccccc2n1,USP13 ZnF-UBD domain,,,,,Kd,> 1000 µM
CC(=O)N[C@H]1[C@H](O[C@H]2[C@H](O)[C@@H](NC(C)=O)C(O)O[C@@H]2CO)O[C@H](CO)[C@@H](O[C@@H]2O[C@H](CO)[C@@H](O)[C@H](O)[C@H]2NC(C)=O)[C@@H]1O (stereo partly drawn),LYZ,"binding, native nano-ESI MS",,"pH 7.4, emitter tip 850 nm",,Kd,7.8 ± 0.2 µM
C[C@H](O)C(=O)O,L166H-Q481H zinc sensor protein,"binding, fluorescence lifetime",,no Zn2+,,Kd,513 ± 83 µM
O=C(O)CCN1C(=O)c2ccccc2S1(=O)=O,HDAC6 ZnF-UBD domain,,,,,Kd,> 1000 µM
CN(C)C(=O)c1cc2cnc(Nc3ccc(C(=O)NCCCCCCOc4cccc5c4C(=O)N(C4CCC(=O)NC4=O)C5=O)cc3)nc2n1C1CCCC1 (stereo not drawn),"Aurora kinase A, with N-Myc (AURKA, Homo sapiens, UniProt O14965, C290A/C393S)","ternary complex binding, biolayer interferometry",,steady-state,,Kd,0.0195 µM
OC[C@H]1OC(O)[C@@H](O)[C@@H](O)[C@@H]1O (stereo partly drawn),Methyl-accepting chemotaxis protein McpA ligand-binding domain,"binding, biolayer interferometry",,"25 °C, 1:1 binding model",,Kd,28.6 ± 2.22 µM
NCCCCCNC(=O)c1ccc(NC(=O)c2ccc(CN(C(=O)c3ccc4c(c3)OCC(=O)N4)C3CC3)cc2)cc1,"Histone-lysine N-methyltransferase NSD2, PWWP1 domain (NSD2, Homo sapiens, UniProt O96028)",SPR single-cycle kinetics,,"pH 7.4, 20 °C, 0.5% DMSO",,Kd,0.036 ± 0.021 µM
Nc1nc2c(ncn2[C@@H]2O[C@H](COP(=O)(O)O)[C@@H](O)[C@H]2O)c(=O)[nH]1,"GUK1 (Homo sapiens, UniProt Q16774)",ITC,,"pH 7.5, 20 mM HEPES, together with: 150 mM NaCl",,Kd,35 µM and 28 µM
Cn1cc(-c2ccc(-c3cncc(Cl)c3N3CCC4(CCNC4=O)CC3)cc2)cn1,COLO 205,"microarray, refers to: ITPR1",,"concentration not given, 6 h, gene set IP3R1",relative to: untreated cells,fold change in expression,2.31
Cc1cc(Nc2cc3ncccc3c(N[C@@H]3C[C@H]4CC[C@@H](C3)N4CCC#N)n2)n[nH]1,"PAK4 (Homo sapiens, UniProt O96013)","binding, KINOMEscan",,,,Kd,0.17 µM
CC(=O)N[C@H]1[C@H](O[C@H]2[C@H](O)[C@@H](NC(C)=O)C(O)O[C@@H]2CO)O[C@H](CO)[C@@H](O[C@@H]2O[C@H](CO)[C@@H](O)[C@H](O)[C@H]2NC(C)=O)[C@@H]1O (stereo partly drawn),LYZ,surface sampling native MS,,,,Kd,16.3 ± 2 µM
Nc1nnc(-c2ccccc2O)cc1N1CC2CCC(C1)N2c1ccnc(F)c1,"SMARCA2 (Homo sapiens, UniProt P51531)","binding, NanoBRET tracer displacement",permeabilized HEK293,,,Kd,0.0058 ± 0.0011 µM
Cn1cc(-c2ccc(S(=O)(=O)n3ccc(/C=C/C(=O)Nc4ccccc4N)c3)cc2)cn1,"HDAC6 (Homo sapiens, UniProt Q9UBN7)","inhibitor, competition pulldown",SW620 and MV4-11 lysate,1 h,,Kd,> 30.2 µM
Nc1nc2c(ncn2[C@H]2C[C@H](OP(=O)(O)OP(=O)(O)O)[C@@H](COP(=O)(O)OP(=O)(O)O)O2)c(=O)[nH]1,cadA,,,,,Kd,5.3 µM
CC[C@H](C)[C@H](NC(=O)[C@H](CCCNC(=N)N)NC(=O)[C@H](CCCCN)NC(=O)[C@@H]1CCCN1C(=O)[C@@H](N)CO)C(=O)N[C@@H](C)C(=O)O,"N-terminal Xaa-Pro-Lys N-methyltransferase 1 (Homo sapiens, UniProt Q9BV86, D180A)",ITC,,"25 °C, together with: peptide",,Kd,> 1000 µM
NC(=O)[C@H]1CCCN1C(=O)CCC(=O)O,USP13 ZnF-UBD domain,,,,,Kd,> 1000 µM
C[C@H](O)[C@@H](O)[C@@H](O)[C@H](O)C=O,Methyl-accepting chemotaxis protein McpA ligand-binding domain,"binding, biolayer interferometry",,"25 °C, 1:1 binding model",,Kd,63.4 ± 6.42 µM
O=C(O)Cc1nc2ccccc2[nH]1,USP13 ZnF-UBD domain,,,,,Kd,> 1000 µM
CCCCCCCC/C=C\CCCCCCCC(=O)O,"uncharacterized protein (Corynebacterium lipophiloflavum, UniProt C0XPZ5)","heme spectral shift, substrate, UV-visible spectral titration",,,,Kd,1.64 µM
Cc1ccc(C(=O)O)cc1S(=O)(=O)Nc1cccc(C(=O)CCC(=O)O)c1,HDAC6 ZnF-UBD domain,,,,,Kd,> 1000 µM
Nc1nc2c(ncn2[C@@H]2O[C@H](COP(=O)(O)OP(=O)(O)O)[C@@H](OP(=O)(O)OP(=O)(O)O)[C@H]2O)c(=O)[nH]1,"Guanosine-inosine kinase (gsk, Escherichia coli, UniProt P0AEW6)","binding, ITC sequential two-site fit",,second weak site,,Kd,14 ± 2 µM

# A few entries again:
SMILES,tested on,test,system,setting,scale,endpoint,value
NCCCCCNC(=O)c1ccc(NC(=O)c2ccc(CN(C(=O)c3ccc4c(c3)OCC(=O)N4)C3CC3)cc2)cc1,"Histone-lysine N-methyltransferase NSD2, PWWP1 domain (NSD2, Homo sapiens, UniProt O96028)",SPR single-cycle kinetics,,"pH 7.4, 20 °C, 0.5% DMSO",,Kd,0.036 ± 0.021 µM
Nc1nc2c(ncn2[C@H]2C[C@H](OP(=O)(O)OP(=O)(O)O)[C@@H](COP(=O)(O)OP(=O)(O)O)O2)c(=O)[nH]1,cadA,,,,,Kd,5.3 µM
CCCCCCCC/C=C\CCCCCCCC(=O)O,"uncharacterized protein (Corynebacterium lipophiloflavum, UniProt C0XPZ5)","heme spectral shift, substrate, UV-visible spectral titration",,,,Kd,1.64 µM
CC(=O)N[C@H]1[C@H](O[C@H]2[C@H](O)[C@@H](NC(C)=O)C(O)O[C@@H]2CO)O[C@H](CO)[C@@H](O[C@@H]2O[C@H](CO)[C@@H](O)[C@H](O)[C@H]2NC(C)=O)[C@@H]1O (stereo partly drawn),LYZ,surface sampling native MS,,,,Kd,16.3 ± 2 µM
Cn1cc(-c2ccc(S(=O)(=O)n3ccc(/C=C/C(=O)Nc4ccccc4N)c3)cc2)cn1,"HDAC6 (Homo sapiens, UniProt Q9UBN7)","inhibitor, competition pulldown",SW620 and MV4-11 lysate,1 h,,Kd,> 30.2 µM
C=CC(=O)N1CCN(c2nc(OC[C@@H]3CCCN3C)nc3c(F)c(-c4nc(N)cc(C)c4C(F)(F)F)c(Cl)cc23)[C@@H](C)C1,"GTPase KRas, GDP-bound (KRAS, Homo sapiens, UniProt P01116)",microscale thermophoresis,,,,Kd,0.197 ± 0.13 µM
